Results gathered from unrelated publications.
Each numbered part is a random draw from the data of one study; scales do not carry over between parts. Several values in a cell are separate wells, animals, samples, runs or records.
UniProt P08922, sequence (whole entry, looked up): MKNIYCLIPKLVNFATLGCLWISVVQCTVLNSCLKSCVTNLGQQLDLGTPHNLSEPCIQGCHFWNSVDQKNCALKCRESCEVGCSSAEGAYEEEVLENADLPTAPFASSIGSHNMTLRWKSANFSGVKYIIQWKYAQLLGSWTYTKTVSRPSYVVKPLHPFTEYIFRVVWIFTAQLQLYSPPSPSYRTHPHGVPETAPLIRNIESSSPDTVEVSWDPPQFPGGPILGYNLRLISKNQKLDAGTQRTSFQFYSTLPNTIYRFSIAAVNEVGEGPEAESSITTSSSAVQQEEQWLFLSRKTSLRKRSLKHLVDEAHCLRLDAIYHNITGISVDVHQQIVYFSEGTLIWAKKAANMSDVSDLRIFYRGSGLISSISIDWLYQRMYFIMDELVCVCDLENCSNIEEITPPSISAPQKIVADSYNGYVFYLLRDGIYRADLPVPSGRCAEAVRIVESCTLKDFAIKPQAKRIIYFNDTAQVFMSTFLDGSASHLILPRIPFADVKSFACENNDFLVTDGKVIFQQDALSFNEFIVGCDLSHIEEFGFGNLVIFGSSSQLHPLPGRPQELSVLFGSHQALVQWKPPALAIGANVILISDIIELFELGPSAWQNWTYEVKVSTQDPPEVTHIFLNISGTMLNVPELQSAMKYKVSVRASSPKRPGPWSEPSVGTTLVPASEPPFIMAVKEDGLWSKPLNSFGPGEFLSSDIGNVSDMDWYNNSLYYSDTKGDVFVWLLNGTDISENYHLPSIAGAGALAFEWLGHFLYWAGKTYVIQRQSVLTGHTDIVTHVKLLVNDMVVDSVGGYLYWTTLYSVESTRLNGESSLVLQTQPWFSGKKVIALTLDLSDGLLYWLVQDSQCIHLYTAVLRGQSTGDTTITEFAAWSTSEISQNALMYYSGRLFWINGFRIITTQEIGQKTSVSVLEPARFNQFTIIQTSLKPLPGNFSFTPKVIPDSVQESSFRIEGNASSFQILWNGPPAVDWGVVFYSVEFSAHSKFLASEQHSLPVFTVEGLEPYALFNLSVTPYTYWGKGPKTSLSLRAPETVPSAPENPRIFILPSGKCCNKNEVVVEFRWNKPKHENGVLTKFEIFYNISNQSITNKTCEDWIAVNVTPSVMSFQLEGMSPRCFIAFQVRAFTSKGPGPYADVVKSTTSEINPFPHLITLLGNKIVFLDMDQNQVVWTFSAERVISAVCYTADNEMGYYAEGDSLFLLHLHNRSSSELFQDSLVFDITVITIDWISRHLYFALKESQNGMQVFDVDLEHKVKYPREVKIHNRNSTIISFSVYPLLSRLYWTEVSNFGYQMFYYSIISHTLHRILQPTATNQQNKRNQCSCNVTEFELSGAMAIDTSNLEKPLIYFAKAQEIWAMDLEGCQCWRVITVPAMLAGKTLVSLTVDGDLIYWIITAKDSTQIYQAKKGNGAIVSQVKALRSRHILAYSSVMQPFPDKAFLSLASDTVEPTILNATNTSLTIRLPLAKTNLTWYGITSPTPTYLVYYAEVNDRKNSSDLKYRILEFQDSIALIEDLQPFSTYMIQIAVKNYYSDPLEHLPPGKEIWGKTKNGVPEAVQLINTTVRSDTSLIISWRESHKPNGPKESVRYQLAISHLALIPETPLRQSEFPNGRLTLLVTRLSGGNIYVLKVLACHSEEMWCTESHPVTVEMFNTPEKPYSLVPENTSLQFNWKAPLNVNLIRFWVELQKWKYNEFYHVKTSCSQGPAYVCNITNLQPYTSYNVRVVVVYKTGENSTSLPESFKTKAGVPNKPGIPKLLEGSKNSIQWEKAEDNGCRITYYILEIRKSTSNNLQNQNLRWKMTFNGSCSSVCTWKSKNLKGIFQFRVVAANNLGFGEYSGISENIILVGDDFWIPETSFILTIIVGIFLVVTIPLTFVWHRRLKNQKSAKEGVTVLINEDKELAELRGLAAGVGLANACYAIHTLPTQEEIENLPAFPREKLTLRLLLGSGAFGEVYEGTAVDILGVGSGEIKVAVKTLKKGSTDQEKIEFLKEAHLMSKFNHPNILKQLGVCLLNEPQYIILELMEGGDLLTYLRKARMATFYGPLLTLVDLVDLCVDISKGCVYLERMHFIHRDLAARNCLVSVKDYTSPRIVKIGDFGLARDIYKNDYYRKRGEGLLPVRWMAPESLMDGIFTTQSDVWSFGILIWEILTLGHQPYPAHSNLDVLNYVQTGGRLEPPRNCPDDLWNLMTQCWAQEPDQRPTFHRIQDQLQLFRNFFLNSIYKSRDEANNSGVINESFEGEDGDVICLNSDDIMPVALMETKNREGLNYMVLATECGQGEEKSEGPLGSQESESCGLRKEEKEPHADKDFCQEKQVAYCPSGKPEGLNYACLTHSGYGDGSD
UniProt P27448, sequence (whole entry, looked up): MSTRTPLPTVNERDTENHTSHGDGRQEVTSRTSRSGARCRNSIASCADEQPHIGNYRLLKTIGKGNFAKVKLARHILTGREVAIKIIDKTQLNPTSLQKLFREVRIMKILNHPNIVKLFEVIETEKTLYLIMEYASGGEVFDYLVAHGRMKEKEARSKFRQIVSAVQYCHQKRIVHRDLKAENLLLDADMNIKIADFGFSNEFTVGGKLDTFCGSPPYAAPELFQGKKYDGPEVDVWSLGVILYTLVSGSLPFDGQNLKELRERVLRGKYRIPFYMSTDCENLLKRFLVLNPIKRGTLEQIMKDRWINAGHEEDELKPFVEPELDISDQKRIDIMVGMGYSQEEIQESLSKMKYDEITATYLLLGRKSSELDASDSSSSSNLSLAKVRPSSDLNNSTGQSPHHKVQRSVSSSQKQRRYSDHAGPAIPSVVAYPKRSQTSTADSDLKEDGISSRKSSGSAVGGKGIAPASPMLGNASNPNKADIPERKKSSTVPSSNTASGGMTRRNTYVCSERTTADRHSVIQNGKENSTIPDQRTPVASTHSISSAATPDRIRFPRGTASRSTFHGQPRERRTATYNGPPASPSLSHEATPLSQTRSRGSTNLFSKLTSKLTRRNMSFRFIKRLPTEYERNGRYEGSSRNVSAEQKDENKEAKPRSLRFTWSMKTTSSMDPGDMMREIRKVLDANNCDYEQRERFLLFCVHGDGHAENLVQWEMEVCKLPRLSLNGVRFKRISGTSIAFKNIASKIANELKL
UniProt P37173, sequence (whole entry, looked up): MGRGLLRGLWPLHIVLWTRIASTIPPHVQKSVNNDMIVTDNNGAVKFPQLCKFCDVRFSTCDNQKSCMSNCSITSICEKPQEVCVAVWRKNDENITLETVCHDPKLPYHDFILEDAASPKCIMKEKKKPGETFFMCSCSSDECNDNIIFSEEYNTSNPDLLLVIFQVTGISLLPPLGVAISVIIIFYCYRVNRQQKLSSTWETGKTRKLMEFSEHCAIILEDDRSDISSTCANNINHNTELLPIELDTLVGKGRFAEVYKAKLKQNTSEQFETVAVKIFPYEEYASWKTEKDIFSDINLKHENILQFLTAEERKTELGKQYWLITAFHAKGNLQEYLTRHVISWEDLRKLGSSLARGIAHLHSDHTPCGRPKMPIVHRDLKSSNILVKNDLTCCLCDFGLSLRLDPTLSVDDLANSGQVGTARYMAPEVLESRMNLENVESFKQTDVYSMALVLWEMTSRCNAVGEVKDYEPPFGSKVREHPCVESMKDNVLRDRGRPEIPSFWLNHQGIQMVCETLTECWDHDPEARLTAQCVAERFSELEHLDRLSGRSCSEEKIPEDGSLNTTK
UniProt Q9BVS4, sequence (whole entry, looked up): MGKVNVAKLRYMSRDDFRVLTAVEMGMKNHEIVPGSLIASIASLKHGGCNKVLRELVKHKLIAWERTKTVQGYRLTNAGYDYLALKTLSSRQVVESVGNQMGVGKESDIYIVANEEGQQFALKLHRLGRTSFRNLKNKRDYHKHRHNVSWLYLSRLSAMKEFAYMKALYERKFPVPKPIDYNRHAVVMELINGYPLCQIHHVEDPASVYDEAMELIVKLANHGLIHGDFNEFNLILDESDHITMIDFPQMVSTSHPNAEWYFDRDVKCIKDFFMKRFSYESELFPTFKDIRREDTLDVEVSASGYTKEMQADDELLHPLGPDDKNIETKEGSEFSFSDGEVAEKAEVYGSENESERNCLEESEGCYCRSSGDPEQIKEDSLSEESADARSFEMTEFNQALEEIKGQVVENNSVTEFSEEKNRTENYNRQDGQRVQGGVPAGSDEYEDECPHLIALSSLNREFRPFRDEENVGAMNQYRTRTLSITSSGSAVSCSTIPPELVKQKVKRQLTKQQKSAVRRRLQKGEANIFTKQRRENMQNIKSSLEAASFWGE

Set 1
Structure (SMILES): CNC(=O)Nc1ccc2c(c1)CC[C@@]21OC(=O)N(CC(=O)N(Cc2ccc(F)cc2)[C@@H](C)C(F)(F)F)C1=O
Effect on: cell-free assay
Method: competition with immobilised ligand
Concentration: 1 µM
target | remaining binding
Ephrin type-B receptor 4 (EPHB4, Homo sapiens, UniProt P54760) | 80%
Serine/threonine-protein kinase RIO2 (RIOK2, Homo sapiens, UniProt Q9BVS4) | 67%
Serine/threonine-protein kinase 33 (STK33, Homo sapiens, UniProt Q9BYT3) | 100%
Serine/threonine-protein kinase TAO2 (TAOK2, Homo sapiens, UniProt Q9UL54) | 91%
Proto-oncogene tyrosine-protein kinase ROS (ROS1, Homo sapiens, UniProt P08922) | 80%
MAP/microtubule affinity-regulating kinase 3 (MARK3, Homo sapiens, UniProt P27448) | 100%
Misshapen-like kinase 1 (MINK1, Homo sapiens, UniProt Q8N4C8) | 95%
Serine/threonine-protein kinase NIM1 (NIM1K, Homo sapiens, UniProt Q8IY84) | 71%
Fibroblast growth factor receptor 3 (FGFR3, Homo sapiens, UniProt P22607, G697C) | 79%
Serine/threonine-protein kinase tousled-like 1 (TLK1, Homo sapiens, UniProt Q9UKI8) | 88%
Serine/threonine-protein kinase PAK 4 (PAK4, Homo sapiens, UniProt O96013) | 89%
Dual specificity protein kinase CLK3 (CLK3, Homo sapiens, UniProt P49761) | 83%
Tyrosine-protein kinase ABL1, phosphorylated (ABL1, Homo sapiens, UniProt P00519, T315I) | 100%
TGF-beta receptor type-2 (TGFBR2, Homo sapiens, UniProt P37173) | 90%
Serine/threonine-protein kinase ULK3 (ULK3, Homo sapiens, UniProt Q6PHR2) | 90%

Set 2
Target: Beta-1 adrenergic receptor (ADRB1, Homo sapiens, UniProt P08588)
UniProt P08588, sequence (whole entry, looked up): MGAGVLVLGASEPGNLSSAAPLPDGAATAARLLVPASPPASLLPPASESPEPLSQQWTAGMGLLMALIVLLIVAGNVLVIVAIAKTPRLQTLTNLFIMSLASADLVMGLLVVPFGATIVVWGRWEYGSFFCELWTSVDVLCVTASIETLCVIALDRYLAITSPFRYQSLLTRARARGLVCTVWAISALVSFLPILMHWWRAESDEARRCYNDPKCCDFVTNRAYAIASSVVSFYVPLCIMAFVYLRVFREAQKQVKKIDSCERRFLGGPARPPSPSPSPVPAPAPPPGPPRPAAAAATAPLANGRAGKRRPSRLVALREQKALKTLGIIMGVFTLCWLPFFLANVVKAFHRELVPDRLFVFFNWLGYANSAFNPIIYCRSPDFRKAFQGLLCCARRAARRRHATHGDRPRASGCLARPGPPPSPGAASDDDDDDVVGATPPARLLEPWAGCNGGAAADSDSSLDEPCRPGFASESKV
Action: agonist
Compound | EC50
CN(c1ccccc1)c1cc(=O)c2ccnc(-c3ccncc3)c2o1 | ≥ 100 µM
COc1ccccc1N1CCN([C@H]2[C@@H]3OC[C@@H](O3)[C@@H](N(CC3CC3)CC3CC3)[C@@H]2O)CC1 | ≥ 100 µM
O=C(Nc1ccccc1)Nc1ccc([C@@H](O)[C@H]2COCC(=O)N2CC2CC2)cc1 | ≥ 100 µM
COc1ccccc1N1CCN(C(=O)c2ccc(F)cc2)CC1 | ≥ 100 µM
CC(=O)N[S+](=O)([O-])c1ccc(NC(=O)c2cc(-c3ccccc3)nc3ccccc23)cc1 | ≥ 100 µM
Cc1noc2c(-c3ccc(N4CCOCC4)cc3)cc(-c3cccs3)nc12 | ≥ 100 µM
CCN(CC)c1ccc2c(c1)OC(=O)/C(=C/Nc1ccc(CC(=O)NNc3c4c(nc5ccccc35)CCCC4)cc1)C2=O | ≥ 100 µM
Cc1nc(CN2CCOCC2C2CCCC2O)nc2ccccc12 (centres unmarked) | ≥ 100 µM
Cc1cccc2nc(C(=O)N3CCN(c4cccc(Cl)c4)CC3)cn12 | ≥ 100 µM
CN(C)CC(O)COc1ccc(CN2CCC(N3CCOC3=O)CC2)cc1 (centres unmarked) | ≥ 100 µM
O=C1c2ccc3ccccc3c2C(=O)C1c1cc(O)c2ccccc2n1 (centres unmarked) | ≥ 100 µM

Set 3
Compound: CO[C@@H]1[C@@H](OC(N)=O)[C@@H](O)[C@H](Oc2ccc3c(O)c(NC(=O)c4ccc(O)c(CC=C(C)C)c4)c(=O)oc3c2C)OC1(C)C
Time: 6 days
cell line | effect on | method | concentration | baseline | viability
UWB1.289 parental | – | CellTiter-Glo | 50 µM | untreated | 64.1%
RPE-1 BRCA1-/- PARPi-resistant R4 | – | CellTiter-Glo | 150 µM | – | 61.1% and 55%
MDA-MB-436 PARPi-resistant | – | CellTiter-Glo | 50 µM | untreated | 35% and 50.8% and 42.5% and 30.5% and 41.6% and 47.9%
RPE-1 wild type | – | CellTiter-Glo | 150 µM | untreated | 104% and 109%
RPE-1 p53-/- BRCA1-/- | – | CellTiter-Glo | 25 µM | untreated | 67.6% and 76.1% and 89.6%
RPE-1 BRCA1-/- PARPi-resistant R3 | – | CellTiter-Glo | 150 µM | – | 58.9% and 57.2%
RPE-1 | cell growth or viability | ATP luminescence | 25 µM | – | 100%
RPE-1 BRCA1-/- PARPi-resistant R3 | – | CellTiter-Glo | 25 µM | – | 77.9% and 95.7%

Other studies, line by line
SMILES | method | host | dose | notes | quantity | result
CC(C)n1cnc(-c2ccc(F)cc2)c1-c1ncc(C(=O)Nc2ccc(N3CCN(C)CC3)cc2)[nH]1 | phase 2a clinical trial | patients with idiopathic pulmonary fibrosis | dose not given | all compound arms pooled | patients with Arthritis TEAE | 0%
